Assay results from different studies.
Numbered parts are unrelated; each lists some results of a single study.

Block 1 — method: protein-binding microarray; molecule type: double-stranded DNA, one strand shown; medium: in vitro; concentration: not given; reading: higher = stronger binding
Target: Myc proto-oncogene protein, bHLH-zipper, MAX partner unstated (MYC, Homo sapiens, UniProt P01106, residues 368-449)
Chain of UniProt P01106 (368-449, looked up): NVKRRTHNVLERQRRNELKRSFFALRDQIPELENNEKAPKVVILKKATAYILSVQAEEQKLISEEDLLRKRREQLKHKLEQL
Setting: k-mer, scored over probes, only values ≥0.25
Strand | E-score
CCCGCCCC | 0.388
ATGTGGGG | 0.257
CGTGTAAA | 0.314
GACCACAC | 0.325
ATCGTGGC | 0.325
GCATGTTA | 0.332
GCGCACCC | 0.303
AAGCGTGG | 0.407
GGGGTGGA | 0.27
GTGCACGA | 0.347
GTGGGCGA | 0.291
CCCCGTCC | 0.278
CGTGTGCC | 0.37
ACGCCACA | 0.293
CGTGACCA | 0.37
CGGACCAC | 0.251
CCCCTCGA | 0.251
AGGACATG | 0.259
AAAGCGTG | 0.394
CTCCATGC | 0.376
ATGAGGGA | 0.301
AGGGGAGG | 0.34
CCCGCGCC | 0.288
CCCCCACG | 0.374
GGCCGCAC | 0.254

Block 2 — method: aptamer microarray, sandwich; molecule type: DNA with 2'F-ANA; medium: in vitro; concentration: 200 nM; added: Cy3 exosite-II aptamer, 400 nM; reading: higher = stronger binding; strand: GGTTGGTGTGGTTGG
Target: Prothrombin, mature alpha-thrombin (F2, Homo sapiens, UniProt P00734)
Setting: whole 15-mer aptamer, many near background
Modification | mean fluorescence intensity [a.u.]
2'F-ANA at 1 2 3 4 8 9 12 13 | 256
2'F-ANA at 4 7 8 9 10 11 14 15 | 276
2'F-ANA at 1 6 7 12 13 | 267
2'F-ANA at 5 8 13 14 15 | 46.7
2'F-ANA at 1 4 8 12 15 | 341
2'F-ANA at 2 3 4 6 7 8 9 11 14 15 | 213
2'F-ANA at 1 4 5 7 8 10 12 13 15 | 46.4
2'F-ANA at 1 2 4 5 6 7 8 9 10 11 14 15 | 57.6
2'F-ANA at 1 2 7 8 11 13 14 15 | 73.6
2'F-ANA at 2 3 9 10 11 14 15 | 312
2'F-ANA at 3 4 8 11 12 | 842
2'F-ANA at 1 4 5 6 7 8 11 12 14 15 | 50.5
2'F-ANA at 1 4 6 7 11 13 14 15 | 51
2'F-ANA at 1 3 7 8 10 14 | 60.1
2'F-ANA at 4 6 7 8 9 10 11 14 15 | 64.3
2'F-ANA at 1 2 3 4 6 8 9 10 11 12 13 14 | 62.7
2'F-ANA at 1 2 6 7 9 10 12 14 | 53.8
2'F-ANA at 1 2 3 8 9 10 11 12 13 14 | 66.5
2'F-ANA at 2 3 4 5 7 8 9 13 | 63.1
2'F-ANA at 2 3 9 11 12 14 15 | 432
2'F-ANA at 1 2 4 5 7 8 9 13 14 15 | 46.4

Block 3 — method: RNA Bind-n-Seq; molecule type: RNA; medium: in vitro; concentration: 200 nM; setting: whole 134-nt RNA, ends assumed; added: 150 mM LiCl; relative to: input library; reading: higher = stronger binding; each molecule: 7-deaza-guanosine replaces G
Target: Fragile X messenger ribonucleoprotein 1, C-terminal low-complexity region (Fmr1, Mus musculus, UniProt P35922)
Constant ends, left off below: GGGAGUUCUACAGUCCGACGAUC … UGGAAUUCUCGGGUGUCAAGG
Strand | log2 enrichment
UCCUGUGCUACACAUCGUAUGUACCGAAUCGGGGUGGGGUUUUUUUGGGGAAAAAGGGGAAAGUAUUAUGUUACGCCGUUCGGAUCUGCA | -1.28
UCUGCUAAAGAGAAAGGAAAAUUUGAAGAUAUGGCAAAAGCGGACAAGGCCCGUUAUGAAAGAGAAAUGAAAACCUAUAUCCCUCCCAAA | 1.52
UGGCCAAUAGCAUCCUUUUCCAGUCUUCCGGUCUGACAAAUGGAAUAAUAGAAGAAAAGGACAUACAUGAAGAAUUGCCAAAACGGAAAG | -1.79
CCUGUGCUACACAUCGUAUGUACCGAAUCGGGGAGGGGAAAAAAAGGGGUUUUUUUGGGGAAAGUAUUAUGUUACGCCGUUCGGAUCUGC | -1.22
UAACUUUAGACGAGGAUCUGAUGGAUAUGGCAGUGGACGUGGAUUUGGGGAUGGCUAUAAUGGGUAUGGAGGAGGACCUGGAGGUGGCAA | 0.0742
GUCCUGUGCUACACAUCGUAUGUACCGAAUCGGGUUUUUGGUUUUUGGGUUUUUGGGGAAAGUAUUAUGUUACGCCGUUCGGAUCUGCAC | -1.17
UCCUGUGCUACACAUCGUAUGUACCGAAUCGGGGCCCCCGGGGCCCCCGGGCCCCCGGGAAAGUAUUAUGUUACGCCGUUCGGAUCUGCA | -0.546
AAGUCCUGUGCUACACAUCGUAUGUACCGAAUCAAACCCCCAAACCCAAAUUUAAAAAAGUAUUAUGUUACGCCGUUCGGAUCUGCACUU | 0.912
GCAGGAAGUAAAAACAAAUGGAAAUGCUUCGGAUAGUGGCAGGGGUGGGGGUUGCUAAGAAAAGGGUGGGAUGGGAGUGGGUAAAGAGUU | 1.66
UGGAUUUUCAAGACACGAAUGCUCGGAGUCUGGCAGAAAGGAAGAGAGAAGAGGAGAAGCAGAAGCACUUGGAUAAAAUUUAUCAAGAAA | -1.18
UUAAGUUGAAGGAGCGCUACCGCAACGUGCUGGACACCAUGUUCGAGCUGCUGCCCCGGAUGGCCAGGUACUGCCAGCCCCCACCCUGGC | 0.284

Block 4 — method: protein binding microarray; molecule type: double-stranded DNA, one strand shown; medium: in vitro; concentration: not given; relative to: not given; reading: higher = stronger binding
Target: Histone acetyltransferase KAT6A, winged helix 2, GST fusion (KAT6A, Homo sapiens, UniProt Q92794, residues 85-181)
Setting: 8-mer, flanks averaged, mean of 2 arrays, mostly near background
Residues (chain): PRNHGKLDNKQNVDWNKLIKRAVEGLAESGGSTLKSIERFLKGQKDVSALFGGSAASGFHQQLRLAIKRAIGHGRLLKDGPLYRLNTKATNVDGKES
Strand | E-score
ATGACTCA | -0.0966
TTAGATAA | 0.000425
CGCAATCC | 0.153
AAGGGGAG | -0.0915
CCACGGGG | 0.16
AGACCAGG | -0.0626
ACGCCCTC | 0.057
ATATGAAT | -0.0364
CATGACTA | -0.209
CGGGGGTC | 0.0176
TACCAGGA | 0.169
AGCTTCTA | -0.104
AACTTCCG | -0.00663
GCGTTTAC | -0.199
GATTTCCA | -0.0179
ATGCGCTG | 0.0813
CATTGTCG | 0.0028
AAATATCG | -0.077
AGTAGGAC | -0.0265
AGAATGGG | -0.0444

Block 5 — method: RNA Bind-n-Seq; molecule type: RNA; medium: in vitro; concentration: 365 nM; relative to: no-protein control; reading: higher = stronger binding
Target: RNA binding protein fox-1 homolog 2, RRM domain, GST-SBP tag (RBFOX2, Homo sapiens, UniProt O43251-10, residues 100-194)
Setting: natural RNA segment, single round, ends assumed
Constant ends, left off below: GGGAGUUCUACAGUCCGACGAUC … UGGAAUUCUCGGGUGCCAA
Construct (chain): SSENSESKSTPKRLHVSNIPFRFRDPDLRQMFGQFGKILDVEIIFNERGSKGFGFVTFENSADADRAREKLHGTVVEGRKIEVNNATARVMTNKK
Strand | RBNS enrichment (R)
CUGCUUUCCUGGGAAGCCGCAAGUUCAGUCAGUGGGGCACACAGGCUUUGUUUCAGCCUGGAAGUGAGGGCUCUGGAGAUGGAGAUAGGAGCCAUAAGCUCUCCUUCAGA | 0.588
GCCACCCACCCACAGAUUUGGUUCGGUUUGGUUGUUUACCAGAUCACAUGAUGUCGAUGUCCCAAGGUGAAGGCAACGUCAGGAGUGCCGCAUGUAGGGAGAUGGAGGGA | 0.715
CCCUCCACGCCCUCCGUGAGGUUGUCCAGGCUGUGUUCUCUCGCAUGCUUCUCUUCUAUAUAACCCUCAUCUUCUCAUUUUAUGGGAUUCAACACAAAGUCUACUUAUGC | 5.85
AUUUUUUUUUCUCUAAGAAGAGGCUUUGGAAUGAGUUCCAAUUUGUGAUGUUAAUACAGGCUUCUUGUUUUAGGAAGCAUCACCUAUACUCUGAAGCCUUUAAACUCUGA | 1.09
UAUUUUACUAGUCCAAUCACCCCCAGGACCUCUUCAGCUGCUGACAAUCCUAUUUAGCAUAUGCAAAUCUUUUAACAUAGAGAACUGUCACCCUGAGGUAACAGGGUCAA | 0.434
UUUGUUUACUAAGGGUCUGCUUAGGAAGAAUUCAGGGAGGAACUGUGCUGUGGUGUGACCAAUGAAAAGCUGCAGUCCAGUUUUGUCCCUGGAACCUGUCCUGCACUCUU | 0.36
AUGUGGAUGGCCUGGGGACUCCUGGGUUUUCUCCCUCCCGACUCCCUAAUAAACCCCGUGAACCUUGGAGCCAGCACAGACUGUACUUAUGUCUGGGCUGGGGGUGGGGG | 0.389
UUCAAAACUAAAAAUCAGCCACAGUUGAAUGCUACAAAAGACAUUUAAAGAUUUUAUUUAAACUGUUAAGAAUCAAGCCGCGAACAAGCCCACUCCUUCAUGAACAAUUC | 0.696
CUCAAGCUCAAGGAACUCACCCCCAGAUAAGAAGCUGGUGCCUCUUGUCUCUCUCAUUUCAGAAACGGACUUUCUCAUCAUGCUUUCCUAUGGUGGGUAUGAGGGGCCAG | 0.253
GCUGCAGCUCUGCAUGCAAUUUAGUGGAAAAGAAGAGGAAGUCCAGACUUGAGUUGCCUGGCUACAUUGCUGAAAGCUUUGUAGCACUUGAAAAUUAAAUAUUGAUUUGU | 0.953
UUGUGUGUGCAAGAAAACUAGGCAAUGUACUCUUCCGAUGUUUGUGUCACACAACACUGAUGUGACUUUUAUAUGCUUUUUCUCAGAUCUGGUUUCUAAGAGUUUUGGGG | 1.83
UUAUGGUAUAACUGGGUCCCUCAACAGUAACCUGGGCUAAAAUAGGUCUUAUGUGGUUCAACUCCCACCCCCGCCUUCCCCAUAUUUUCAACCACUCUGAUUAUCUUCCC | 0.836
